Measured values gathered from unrelated publications.
Numbered parts are unrelated; each lists some results of a single study. “And” joins repeats or separate records; there may be more than shown.

Series 1 — technique: protein-binding microarray; molecule type: double-stranded DNA, one strand shown; medium: in vitro; tested at: 0.8 µM; setting: whole 60-bp probe, no competitor; direction: higher = stronger binding
Target: Centromere-binding protein 1, full length, N-terminal tag (CBF1, Saccharomyces cerevisiae, UniProt P17106, residues 1-351)
Chain of UniProt P17106 (whole entry, looked up): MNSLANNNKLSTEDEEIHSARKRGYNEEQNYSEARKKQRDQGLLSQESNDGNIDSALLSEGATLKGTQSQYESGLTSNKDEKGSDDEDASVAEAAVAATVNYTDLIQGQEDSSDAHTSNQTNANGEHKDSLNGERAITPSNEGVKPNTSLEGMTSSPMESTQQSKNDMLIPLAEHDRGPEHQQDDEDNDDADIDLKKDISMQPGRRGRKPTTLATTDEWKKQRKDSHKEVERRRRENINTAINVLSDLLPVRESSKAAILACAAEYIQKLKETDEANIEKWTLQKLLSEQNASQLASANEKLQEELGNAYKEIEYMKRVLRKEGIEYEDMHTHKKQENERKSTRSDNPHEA
With `GAATTTATAGGTTCACATGATATGAGTATAAATTAGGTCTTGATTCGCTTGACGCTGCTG` the fluorescence intensity was 1420 a.u.
With `GAAAGCCTGGGATGCCACGAGGATGTATTTTGGTAGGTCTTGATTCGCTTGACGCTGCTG` the fluorescence intensity was 568 a.u.
With `TGTACGAAGCTATTTCACGTTGTTATAGTAGTTAGGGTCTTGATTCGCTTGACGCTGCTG` the fluorescence intensity was 603 a.u.
With `CTATGCATTCTTTTCCACACCACCTTCAAATTTTTCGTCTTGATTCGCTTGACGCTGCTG` the fluorescence intensity was 586 a.u.
`GAATTTTGGACTTTTCACGTTGCAGGGACAGCATAGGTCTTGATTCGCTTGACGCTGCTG` gave a fluorescence intensity of 610 a.u.
The fluorescence intensity of `CTAACCTAATAACTTCATGTGATCTGCTCCCCCTTCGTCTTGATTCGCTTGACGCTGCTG` is reported as 1090 a.u.
The fluorescence intensity of `TGTACGAAGCTATGCAACACGCATATAGTAGTTAGGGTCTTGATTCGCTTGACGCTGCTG` is reported as 529 a.u.
`GAACCTGATTCACGTGATGTGGGAATTTTGTCTTAGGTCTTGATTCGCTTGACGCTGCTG` has a fluorescence intensity of 16600 a.u.

Series 2 — observed: enzyme activity; action: inhibitor; tested at: 20 µM
Target: Replicase polyprotein 1ab, polymerase (rep, Severe acute respiratory syndrome coronavirus 2, UniProt P0DTD1)
With `C[C@@H]1C(=O)O[C@H]2C[C@@]34[C@H]5C[C@@H](C(C)(C)C)[C@]36[C@@H](OC(=O)[C@@H]6O)O[C@@]4(C(=O)O5)[C@]21O` the inhibition was -8.28%.
The inhibition of `CC/C=C(\C(=O)N[C@@H]1C(=O)N2C(C(=O)OCOC(=O)C(C)(C)C)=C(COC(N)=O)CS[C@H]12)c1csc(N)n1` is reported as 4.51%.
`OC[C@@H](O)[C@@H](O)CO` has an inhibition of -7.7%.
For `CC(C)c1ccccc1Cc1cc(C(=O)Nc2ccc(S(=O)(=O)c3ccccc3C(C)(C)C)cc2)c(O)c(O)c1O`, the inhibition was 89.4%.
For `CC(=O)Nc1ccc(S(=O)(=O)Nc2ccc([N+](=O)[O-])cc2)cc1`, the inhibition was -3.88%.
`O=P(O)(O)C(O)(Cc1cnc2ccccn12)P(=O)(O)O` gave an inhibition of 1.07%.
The inhibition of `COC(=O)C1=C(C)NC(C)=C([N+](=O)[O-])[C@H]1c1ccccc1C(F)(F)F` is reported as 1.84%.
`CN(C)Cc1c(C(=O)NCCOc2ccc(C(=O)NO)cc2)oc2ccccc12` gave an inhibition of 4.69%.
For `CC1(C)S[C@@H]2[C@H](NC(=O)[C@H](NC(=O)N3CCN(S(C)(=O)=O)C3=O)c3ccccc3)C(=O)N2[C@H]1C(=O)O`, the inhibition was -5.36%.
`COc1c(C)cnc(Cn2cc(C#CCC(C)(C)O)c3c(Cl)nc(N)nc32)c1C` gave an inhibition of -12.7%.
`O=c1ccc2[nH]cc(C3=CCNCC3)c2[nH]1` gave an inhibition of 2.76%.
With `Cc1ccc(C[N+](C)(C)C)o1` the inhibition was -2.13%.
With `CCOC(=O)Nc1ccc2c(c1)N(C(=O)CCN1CCOCC1)c1ccccc1S2` the inhibition was -2.92%.
`COC(=O)N/N=C/c1c[n+]([O-])c2ccccc2[n+]1[O-]` gave an inhibition of -10.7%.
`O=C1CC2(CCCC2)CC(=O)N1CCCCNCC1COc2ccccc2O1` (stereo not drawn) has an inhibition of -2.83%.
For `CN1[C@@H]2CC[C@H]1C[C@@H](OC(=O)c1cc(Cl)cc(Cl)c1)C2`, the inhibition was 18.1%.
`O=C(CCCl)NCCc1ccccc1` has an inhibition of -2.02%.
The inhibition of `CC(C)(O)c1coc(S(=O)(=O)NC(=O)Nc2c3c(cc4c2CCC4)CCC3)c1` is reported as 4.88%.
For `O=C(NO)c1ccc2[nH]c(=O)c(CCCc3ccccc3)nc2c1`, the inhibition was 3.87%.
`CCCC(=O)O[C@]1(C(=O)CCl)[C@H](C)C[C@@H]2[C@@H]3CCC4=CC(=O)C=C[C@]4(C)[C@]3(F)C(=O)C[C@@]21C` has an inhibition of -0.47%.
For `O=C(O)c1nn(Cc2ccc(Cl)cc2Cl)c2ccccc12`, the inhibition was 1.29%.
With `O=C(c1ccc(Nc2nccc(-c3cc4ccccc4s3)n2)cc1)N1CCC(N2CCCC2)CC1` the inhibition was 15%.
The inhibition of `CNC(=O)c1ccccc1Nc1cc(Nc2ccc(N3CCOCC3)cc2OC)ncc1C(F)(F)F` is reported as 0.36%.
`CC(CN(C)C)CN1c2ccccc2CCc2ccccc21` (stereo not drawn) gave an inhibition of -5.03%.
With `CCCCC1CCC(c2nc(-c3ccncc3)no2)CC1` (stereo not drawn) the inhibition was -2.18%.

Series 3 — technique: RNA Bind-n-Seq; molecule type: RNA; medium: in vitro; tested at: 200 nM; setting: whole 134-nt RNA, ends assumed; together with: 150 mM LiCl; baseline: input library; direction: higher = stronger binding; all molecules: 7-deaza-guanosine replaces G
Target: Fragile X messenger ribonucleoprotein 1, C-terminal low-complexity region (Fmr1, Mus musculus, UniProt P35922)
`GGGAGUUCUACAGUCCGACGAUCUGGCCCUGGUGGCAUGCGGGGAGGAAGAGGUGGCCUCAUGGAUCGUGGUGGUCCCGGUGGAAUGUUCAGAGGUGGCCGCGGUGGAGACAGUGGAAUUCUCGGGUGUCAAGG` has a log2 enrichment of -0.637.
`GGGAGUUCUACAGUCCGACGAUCAGUCCUGUGCUACACAUCGUAUGUACCGAAUCGGGGUUUUGGUUUUGGGUUUUGGGGAAAGUAUUAUGUUACGCCGUUCGGAUCUGCACUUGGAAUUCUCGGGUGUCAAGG` gave a log2 enrichment of -1.51.
`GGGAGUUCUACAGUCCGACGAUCUGAGAAACUUGCUCAAAUAUUGGCAGCUAGACAGUUAGAAAUUAAACAGAUUCCAUCUGAUGGCCACUGUAUGUAUAAAGCCAUUGAAGAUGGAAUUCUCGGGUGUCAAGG` has a log2 enrichment of -1.59.
For `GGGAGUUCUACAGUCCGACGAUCCACAGACAACACGCACCCACACAGACAAAAAGGGAAGGGGUUGGGAUGGGGACAGGGUGCACAGCAGGGCGGGGUAGGACCCCAGCCCCUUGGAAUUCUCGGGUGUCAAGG`, the log2 enrichment was 0.101.
The log2 enrichment of `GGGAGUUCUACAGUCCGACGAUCCAAGUCCUGUGCUACACAUCGUAUGUACCGAAUCGGGUUUUUUUGGGAGGGUGGGAAAGUAUUAUGUUACGCCGUUCGGAUCUGCACUUCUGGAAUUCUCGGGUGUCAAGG` is reported as -0.508.
The log2 enrichment of `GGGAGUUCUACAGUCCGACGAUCGCAGGAAGUAAAAACAAAUGGAAUUGCUUCGGAUAGUGGCAGGGGUGGGGGUUGCUAAGGAAAGGGUGGGAUGGGAGUGGGUAAAGAGUUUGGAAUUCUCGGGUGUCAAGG` is reported as 1.38.
For `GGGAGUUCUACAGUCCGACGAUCCACAGACAACACGCACCCACACAGACACAGAGGGAAGGGGUUGGGAUGGGGACAGGGUGCACAGCAGGGCGGGGCAGGACCCCAGCCCCUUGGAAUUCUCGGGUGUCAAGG`, the log2 enrichment was 1.8.
For `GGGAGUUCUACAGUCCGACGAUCCACAGACAACACGCACCCACACAGACACAGAGGGAAGGGGUUGGGAUGGGGACAGGGUGCACAGCAGGGCGGGAAAGGACCCCAGCCCCUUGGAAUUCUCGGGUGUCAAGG`, the log2 enrichment was 2.02.

Series 4 — organism: SARS-CoV-2; observed: cytopathic effect; cells: Vero E6; tested at: 10 µM
For `Oc1cc2c(cc1O)[C@@H]1c3ccc(O)c(O)c3OC[C@]1(O)C2`, the inhibition was -7.3%.
For `O=C1OC2(c3ccccc31)c1cc(Br)c(O)c(Br)c1Oc1c2cc(Br)c(O)c1Br`, the inhibition was -51.7%.
For `C=CC1=C(C)c2cc3[nH]c(cc4nc(cc5[nH]c(cc1n2)c(C)c5C=C)C(C)=C4CCC(=O)O)c(CCC(=O)O)c3C.[Fe+3]`, the inhibition was -4.8%.
The inhibition of `Cc1c(OCC(F)(F)F)ccnc1C[S+]([O-])c1nc2ccccc2[nH]1` (stereo not drawn) is reported as 1.7% and -1.6%.

Series 5 — cell line: HEK-293T/ACE2; tested at: concentration not given; time: 16 (unit not given); baseline: vehicle
The viability of `N=C(N)N/N=C/c1c(Cl)cccc1Cl` is reported as 101%.
`NC(=O)c1cn(Cc2c(F)cccc2F)nn1` has a viability of 105%.
With `CC(=O)O[C@H]1C[C@@H]2CC[C@@H]3[C@H](CC[C@@]4(C)[C@H]3C[C@H]([N+]3(C)CCCCC3)[C@@H]4OC(C)=O)[C@@]2(C)C[C@@H]1[N+]1(C)CCCCC1` the viability was 109%.
`Cc1ccc(C(=O)c2ccc(CC(=O)O)n2C)cc1` gave a viability of 105%.
With `COC[C@@H](NC(C)=O)C(=O)NCc1ccccc1` the viability was 105%.
`C[C@H](Cc1cc2c(c(C(N)=O)c1)N(CCCO)CC2)NCCOc1ccccc1OCC(F)(F)F` gave a viability of 99.3%.

Excerpt of the above (series 1):
With `TGTACGAAGCTATTTCACGTTGTTATAGTAGTTAGGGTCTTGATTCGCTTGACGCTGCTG` the fluorescence intensity was 603 a.u.
With `CTATGCATTCTTTTCCACACCACCTTCAAATTTTTCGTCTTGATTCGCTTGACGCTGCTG` the fluorescence intensity was 586 a.u.
`GAATTTTGGACTTTTCACGTTGCAGGGACAGCATAGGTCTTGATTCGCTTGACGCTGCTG` gave a fluorescence intensity of 610 a.u.
The fluorescence intensity of `CTAACCTAATAACTTCATGTGATCTGCTCCCCCTTCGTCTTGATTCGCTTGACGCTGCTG` is reported as 1090 a.u.
The fluorescence intensity of `TGTACGAAGCTATGCAACACGCATATAGTAGTTAGGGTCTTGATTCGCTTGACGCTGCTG` is reported as 529 a.u.
